Measurements of several laboratories.
Lines come from different studies, so protocols differ. Several values in a cell are separate wells, animals, samples, runs or records. Numbers after ± are the reported error.

SMILES	tested on	test	test system	setting	how to read	quantity	value
CC(=O)Oc1cc2c(s1)CCN(C(C(=O)C1CC1)c1ccccc1F)C2 (centres unmarked)		platelet aggregation, light transmission aggregometry	human patients, platelet-rich plasma	dose not given, 2 h, with: TRAP 15 µM		patients with IPA above 90%	0%
CO[C@H]1C[C@@H]2CC[C@@H](C)[C@@](O)(O2)C(=O)C(=O)N2CCCC[C@H]2C(=O)O[C@H]([C@H](C)C[C@@H]2CC[C@@H](O)[C@H](OC)C2)CC(=O)[C@H](C)/C=C(\C)[C@@H](O)[C@@H](OC)C(=O)[C@H](C)C[C@H](C)/C=C/C=C/C=C/1C		oral glucose tolerance test	healthy adult horses	dose not given, 60 min, baseline before treatment		blood glucose	148 mg/dL
O=C(Cc1ccc(-c2ccccc2)cc1)NC1CS(=O)(=O)c2ccccc21 (centres unmarked)		CoA-CPM signal reduction, CPM fluorescence thiol	cell-free biochemical	assay interference counter-screen, with: CoA replacing acetyl-CoA		IC50	> 125 µM
C[C@@H](NC(=O)N1C(=O)[C@H](Cc2ccnc(N)c2)[C@H]1C(=O)O)C1CCCCC1			human, plasma	continuous intravenous infusion, 1.0 mg/kg/h, days 1 to 6 of 5-day infusion, mean		maximum prothrombin time	13.4 s
CN[C@@H]1COc2c(S(=O)(=O)NC(=O)Nc3c4c(cc5c3CCC5)CCC4)cnn2C1		item: IL-18	human participants, whole blood ex vivo	1800 mg single dose, 1 h, IL-18, circulating, adjusted for, with: LPS/ATP	baseline: baseline	inhibition	98.2%
Cc1n[nH]c2ccc(-c3cc(OC[C@@H](N)Cc4ccccc4)cnc3-c3ccoc3)cc12		kinase binding, competitor, MIB/MS competition, item: CMK2	Candida albicans cell lysate	100 nM	baseline: DMSO	log2 fold change	0.0395
Cn1cc([C@H]2C[C@H]3CSC(N)=N[C@@]3(c3ccc(F)cc3F)CO2)cn1		item: Aβx-40	Mus musculus wild-type, cerebrospinal fluid	subcutaneous, 50 mg/kg, 6 h		Aβ40 level	0.29 ng/mL
O=C(O)CCC(=O)O.[2H]C([2H])([2H])Oc1cc(C)c2[nH]ccc2c1CN1CC[C@@H](C2CC2)C[C@H]1c1ccc(C(=O)O)cc1		item: complement fragment Bb	healthy humans, plasma	multiple dose, all groups		maximum inhibition	~50%
CCNc1nc2c(c(N3CC(=O)Nc4cc(OC)ccc43)n1)CCC2		immunohistochemistry	mouse, A-375/TxR xenograft, tumour	2 or 4 mg/kg	baseline: control	cleaved caspase-3 level	increased
CCCCCCCCCC(=O)N[C@@H](Cc1c[nH]c2ccccc12)C(=O)N[C@H](CC(N)=O)C(=O)N[C@@H](CC(=O)O)C(=O)N[C@@H]1C(=O)NCC(=O)N[C@@H](CCCN)C(=O)N[C@@H](CC(=O)O)C(=O)N[C@H](C)C(=O)N[C@@H](CC(=O)O)C(=O)NCC(=O)N[C@H](CO)C(=O)N[C@@H]([C@H](C)CC(=O)O)C(=O)N[C@@H](CC(=O)c2ccccc2N)C(=O)O[C@@H]1C			bacterial membrane liposomes	50 µg/mL, 100 min		calcein leakage	34%
Nc1ccc(CNc2ccncc2)c(F)c1			male Wistar rat, reserpine-pretreated	intravenous, 270 µg/kg, 5 min, anaesthetized	baseline: baseline	mean arterial pressure increase	43%
Cc1cnc(N2CC3(CCOCC3)C2)c(C(=O)Nc2ccc(C(=O)N3CCc4cc(C(=O)Nc5c(C)cccc5F)sc4-c4ccccc43)cc2)c1		item: MCP3	human RSV infection, plasma	dose not given, AUC, ITT-IS population	baseline: placebo	inhibition	-11%
N#Cc1ccc2c(-c3ccncc3)c(-c3ccc(F)cc3)nn2c1		kinase binding, competitor, MIB/MS competition, item: CMK1	Candida albicans cell lysate	10 µM	baseline: DMSO	log2 fold change	0.306
O=S(=O)(c1ccc2nsnc2c1)N1CCOCC1		CoA-CPM signal reduction, CPM fluorescence thiol	cell-free biochemical	assay interference counter-screen, with: CoA replacing acetyl-CoA		IC50	> 125 µM
Cn1cc(-c2ccc(-c3cncc(Cl)c3N3CCC4(CCNC4=O)CC3)cc2)cn1	COLO 205	gene expression, microarray, item: LGALS1 mRNA		concentration not given, 2 h	baseline: untreated cells	log2 fold change	3.43
CCCCC1(CCCC)CN(c2ccccc2)c2cc(SC)c(OCC(=O)N[C@@H](C(=O)NCC(=O)O)c3ccccc3)cc2S(=O)(=O)C1		item: 7α-hydroxy-4-cholesten-3-one	human, plasma	10 mg once daily, day 14		plasma C4	54.6 ng/mL
CCc1c(C)nc(-c2ccc(Cl)s2)nc1Nc1ccc(CC(=O)O)cc1			mice, chronic ethanol plus binge, liver	intraperitoneal, 0.3 mg/kg daily, ethanol diet 4 weeks, dosed last two	baseline: vehicle	Sirius Red staining	decreased
C[C@@H](O)CCOC(=O)C[C@@H](C)O		item: C16:1-OH/C14:1-DC acylcarnitine	human, plasma	60 min, log2-transformed values		metabolite level	-6.88 ± 0.46 µmol/L
N#Cc1ccc(Oc2ccc3c(c2)COB3O)cc1			mouse, oxazolone dermatitis, plasma	topical, 20 mg/ear, once daily, unit not given	baseline: vehicle	IL4 level difference	-28.9
O=C(O)CNC(=O)Cc1ccccc1			ventricular cardiomyocytes, C57BL/6 mouse	dose not given, 0.16 s		sarcomere length	1.65 µm
[Cl][Ru][Cl].c1cnc2c(c1)ccc1cccnc12.c1cnc2c(c1)ccc1cccnc12.c1cnc2c(c1)ccc1cccnc12			air-saturated acetonitrile		baseline: Ru(bpy)3(PF6)2	singlet oxygen quantum yield	0.53
O=C(OC(C(F)(F)F)C(F)(F)F)N1CCN(Cc2cccc(Oc3ccccc3)c2)CC1		PET blocking study	rhesus monkey, brain HIP	0.03 mg/kg, compound pretreatment, with: [18F]T-401 tracer		k3	0.19 min⁻¹
N#CCC1CCN(c2nc(Nc3ccc(N4CCC(O)CC4)cc3)c3c(=O)[nH]ncc3n2)CC1		Olink multiplex	human, serum	40 mg, day 29, unit not given	baseline: baseline	IL-18 level change	-1.37
Cc1c(Cl)cccc1NC(=O)N1CCCN(c2nc(-c3ccccc3)ns2)CC1		CoA-CPM signal reduction, CPM fluorescence thiol	cell-free biochemical	assay interference counter-screen, with: CoA replacing acetyl-CoA		IC50	> 125 µM
CC[C@H](C)/C=C/C(=O)N1CCC[C@H]1C(=O)N[C@@H](CCC1CCCCC1)C(=O)N[C@H](C(=O)NC(C)(C)C(=O)N[C@@H](CC(C)C)C(=O)N[C@@H](CC(C)C)C(=O)NC(C)(C)C(=O)NC(C)(C)C(=O)NCCC(=O)N[C@@H](C)CN(C)C)[C@H](O)C(C)C			small unilamellar vesicles	concentration not given		calcein leakage	28.3%

SMILES	tested on	test	test system	setting	how to read	quantity	value
CN(C)C(=O)c1cc2cnc(Nc3ccc(N4CCNCC4)cn3)nc2n1C1CCCC1		RNA-seq GSEA, item: HALLMARK_ESTROGEN_RESPONSE_EARLY gene set	MB002 tumour	concentration not given	baseline: vehicle, direction not given	enrichment score	0.233
CC1(C)C=C(CNc2ccc3c(c2)Cc2cc(Br)ccc2-3)C(C)(C)N1[O]		MRI, MSME	wild-type mice, brain	iv, 3 mg/kg, 24 h		T2 relaxation time	31 ms
C[C@H](Oc1ccc(Br)cc1-c1ccon1)C(=O)O		muscle velocity recovery cycles	human, tibialis anterior muscle	400 mg twice daily	baseline: placebo	relative refractory period difference	-0.238 ms
Fc1ccc(Nc2nc(-c3ccccc3F)no2)cc1		CoA-CPM signal reduction, CPM fluorescence thiol	cell-free biochemical	assay interference counter-screen, with: CoA replacing acetyl-CoA		IC50	> 125 µM
Cn1cc(Nc2nccc(-c3ccc4c(c3)CN(C3COC3)CC[C@H]4NC(=O)c3cn(C(C)(C)C)nn3)n2)cn1		item: D-myo-inositol (1,4,5)-trisphosphate Biosynthesis	splenic B cells, mouse	in vivo, 30 mg/kg, IgD-activated B cells	baseline: vehicle, positive = activation	pathway activation z-score	1.34
CC[C@@H]1[C@H](F)C(=O)N[C@@H]1COc1nccc2cc(C(N)=O)c(OC)cc12		ATP-site probe binding, ActivX profiling, item: PCTAIRE2, PCTAIRE3	THP-1 cell lysate	0.01 mM, Lys1 site		inhibition	16.3%
C[C@H]1C[C@H]2CSC(N)=N[C@@]2(c2nc(NC(=O)c3ccc(OC(F)F)cn3)cs2)CO1		item: Aβx-40	healthy adults, plasma	50 mg once daily, day 14	baseline: placebo	percent change from baseline	-59.6%
C=CCn1c(=O)c2cnc(Nc3ccc(N4CCN(C)CC4)cc3)nc2n1-c1ccc2c(n1)[C@@](O)(CC)CC2			OVCAR-3 xenograft, NOD/SCID mice	oral, 80 mg/kg, day 32, once daily intermittent		tumour growth inhibition	92.2%
C=C(CS(=O)(=O)c1cc(C(F)(F)F)cc(C(F)(F)F)c1)C(=O)OCC		HPLC-MS		pH 10.2, with: 50 mM N-α-acetyl-lysine		pseudo-first-order rate constant	29.9 h⁻¹
O=[N+]([O-])c1c(SCCO)ccc2nsnc12		CoA-CPM signal reduction, CPM fluorescence thiol	cell-free biochemical	assay interference counter-screen, with: CoA replacing acetyl-CoA		IC50	> 125 µM
Cl.N[C@@H](Cc1ccc(Oc2nnc(-c3ccccc3)nn2)cc1)C(=O)O		iEDDA cycloaddition	aqueous DMSO 25 %	37 °C, with: TCO-OH 7.2 mM		kobs	0.55 s⁻¹
NC(=O)c1cnc2[nH]ccc2c1N[C@@H]1[C@@H]2CC3C[C@H]1C[C@@](O)(C3)C2		CD4+ effector memory T cells, flow cytometry	Caucasian humans, peripheral blood	200 mg single dose	baseline: baseline	percent change	0.23%
CO[C@H]1CC[C@H](N2C(=O)CNc3ncc(-c4ccc(C(C)(C)O)nc4)nc32)CC1		flow cytometry	stimulated B cells, human, blood	45 mg single dose, 3 h, median	baseline: baseline	pS6RP change from baseline	-79.8%
c1ccc(-c2n[nH]cc2-c2ccnc3ccccc23)nc1		kinase binding, competitor, MIB/MS competition, item: KIN3	Candida albicans cell lysate	10 µM	baseline: DMSO	log2 fold change	1.44
Cc1ccc(NS(=O)(=O)c2ccc(C(C)(C)C)cc2)cc1Cl		CoA-CPM signal reduction, CPM fluorescence thiol	cell-free biochemical	assay interference counter-screen, with: CoA replacing acetyl-CoA		IC50	> 125 µM
O[C@H]1CCCN[C@@H]1CCCn1cnc2c(Cl)c(Cl)ccc21		ELISA, item: Pro-C3	healthy human volunteers, serum	100 mg, day 1, multiple ascending dose		maximum reduction	13.7%
CO[C@@H]1[C@@H](OC(N)=O)[C@@H](O)[C@H](Oc2ccc3c(O)c(NC(=O)c4ccc(O)c(CC=C(C)C)c4)c(=O)oc3c2C)OC1(C)C			Brca1 cc/cc MEFs, mouse	12.5 µM		colony survival	94.2% and 109% and 83.5% and 91.3% and 88.6%
CC(C)NCC(O)c1ccc(O)c(O)c1 (centres unmarked)			ventricular cardiomyocytes, C57BL/6 mouse	dose not given, 0.824 s		sarcomere length	1.54 µm
CNCc1cc(-c2ccccc2F)n(S(=O)(=O)c2cccnc2)c1		gastric acid secretion	dog Heidenhain pouch	oral, 5 mg/kg, 24 h after dosing, with: histamine		inhibition	80.5%
CN(C)C(=O)Oc1cccc([N+](C)(C)C)c1		neuromuscular block reversal	rat	dose not given, 16 (unit not given), with: cisatracurium	baseline: T1 twitch	train-of-four ratio	96.5
OC(CCN1CCCCC1)(c1ccccc1)C1CC2C=CC1C2 (centres unmarked)		resting-state EEG	healthy elderly humans	oral, 2 mg, eyes closed, LS mean		power, theta EEG, Fz-Cz	3.5 µV²
CC(C)C[C@H](NC(=O)C[C@H](O)[C@H](CC(C)C)NC(=O)[C@H](Cc1c[nH]cn1)NC(=O)CNC(=O)[C@@H](NC(=O)[C@H](C)NC(=O)[C@H](Cc1c[nH]c2ccccc12)NC(=O)[C@H](CCC(N)=O)NC(=O)[C@@H](Cc1ccccc1)NC(=O)COCCOCCNC(=O)CCC(C(=O)O)N1CCN(CC(=O)O)CCN(CC(=O)O)CCN(CC(=O)O)CC1)C(C)C)C(N)=O (some centres unmarked) [lutetium-177 labelled]			BALB/c nu/nu mice, carcass	250 pmol, 1 h, with: PA 300 µg		tissue uptake	3.9 ± 0.9 %ID
Cc1noc(C)c1-c1cc(C(O)(c2ccccn2)c2ccccn2)c2nc(C3CC3)[nH]c2c1		item: CCR2 expression	human, peripheral blood	6 mg, day 1, 1604 study, with: enzalutamide		maximum inhibition	37%
NC1(C(=O)N[C@@H](CCO)c2ccc(Cl)cc2)CCN(c2nc[nH]c3nccc2-3)CC1			human mCRPC patients	dose not given, with: enzalutamide		PSA response rate	18.2%
CNCc1ccc(-c2[nH]c3cc(F)cc4c3c2CCNC4=O)cc1			patients	oral, 600 mg twice daily, grade 1		cough incidence	3.8%
